Published values from different studies.
Every numbered part comes from another study and shows a few of its results, in no order. “And” joins repeats or separate records; there may be more than shown.
Sequence of UniProt Q6DT37 (whole entry, looked up): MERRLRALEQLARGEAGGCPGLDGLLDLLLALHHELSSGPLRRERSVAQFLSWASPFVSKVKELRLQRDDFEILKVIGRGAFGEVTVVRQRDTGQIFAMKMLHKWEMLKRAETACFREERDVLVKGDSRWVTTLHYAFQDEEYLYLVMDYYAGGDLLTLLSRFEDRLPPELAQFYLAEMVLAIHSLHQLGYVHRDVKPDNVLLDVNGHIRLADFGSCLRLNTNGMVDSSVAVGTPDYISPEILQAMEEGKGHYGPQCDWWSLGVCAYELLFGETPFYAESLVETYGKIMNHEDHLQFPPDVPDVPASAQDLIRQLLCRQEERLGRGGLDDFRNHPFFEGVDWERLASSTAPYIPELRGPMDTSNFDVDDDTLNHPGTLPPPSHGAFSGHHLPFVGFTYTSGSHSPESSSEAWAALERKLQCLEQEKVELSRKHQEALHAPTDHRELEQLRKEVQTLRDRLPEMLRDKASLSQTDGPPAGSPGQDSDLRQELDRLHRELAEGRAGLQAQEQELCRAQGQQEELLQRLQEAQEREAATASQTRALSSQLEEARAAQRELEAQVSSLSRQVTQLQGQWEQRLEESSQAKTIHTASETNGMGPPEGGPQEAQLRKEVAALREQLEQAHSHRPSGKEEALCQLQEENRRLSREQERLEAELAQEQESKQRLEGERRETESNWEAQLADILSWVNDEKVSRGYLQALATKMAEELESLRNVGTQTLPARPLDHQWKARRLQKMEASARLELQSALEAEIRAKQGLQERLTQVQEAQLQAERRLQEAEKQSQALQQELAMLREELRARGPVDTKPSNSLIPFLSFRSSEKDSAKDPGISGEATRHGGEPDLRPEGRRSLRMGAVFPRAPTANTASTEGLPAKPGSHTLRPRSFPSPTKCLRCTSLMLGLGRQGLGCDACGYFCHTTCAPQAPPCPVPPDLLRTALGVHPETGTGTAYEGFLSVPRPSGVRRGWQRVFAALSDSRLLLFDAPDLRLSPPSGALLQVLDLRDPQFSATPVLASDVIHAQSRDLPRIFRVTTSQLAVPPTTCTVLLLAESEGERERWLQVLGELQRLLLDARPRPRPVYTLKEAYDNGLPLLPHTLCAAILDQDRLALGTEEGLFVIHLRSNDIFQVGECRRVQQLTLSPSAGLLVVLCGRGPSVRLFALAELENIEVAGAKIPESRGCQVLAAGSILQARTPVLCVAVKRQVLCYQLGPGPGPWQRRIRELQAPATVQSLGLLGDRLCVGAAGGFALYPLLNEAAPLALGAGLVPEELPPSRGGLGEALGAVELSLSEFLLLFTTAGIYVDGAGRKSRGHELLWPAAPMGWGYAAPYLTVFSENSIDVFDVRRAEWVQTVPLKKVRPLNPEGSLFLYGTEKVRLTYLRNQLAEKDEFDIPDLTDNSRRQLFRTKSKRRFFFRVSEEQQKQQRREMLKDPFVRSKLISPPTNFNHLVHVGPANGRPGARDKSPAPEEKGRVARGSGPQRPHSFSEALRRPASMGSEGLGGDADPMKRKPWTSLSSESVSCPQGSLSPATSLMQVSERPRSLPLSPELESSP
Sequence of UniProt P00519 (whole entry, unmodified, looked up): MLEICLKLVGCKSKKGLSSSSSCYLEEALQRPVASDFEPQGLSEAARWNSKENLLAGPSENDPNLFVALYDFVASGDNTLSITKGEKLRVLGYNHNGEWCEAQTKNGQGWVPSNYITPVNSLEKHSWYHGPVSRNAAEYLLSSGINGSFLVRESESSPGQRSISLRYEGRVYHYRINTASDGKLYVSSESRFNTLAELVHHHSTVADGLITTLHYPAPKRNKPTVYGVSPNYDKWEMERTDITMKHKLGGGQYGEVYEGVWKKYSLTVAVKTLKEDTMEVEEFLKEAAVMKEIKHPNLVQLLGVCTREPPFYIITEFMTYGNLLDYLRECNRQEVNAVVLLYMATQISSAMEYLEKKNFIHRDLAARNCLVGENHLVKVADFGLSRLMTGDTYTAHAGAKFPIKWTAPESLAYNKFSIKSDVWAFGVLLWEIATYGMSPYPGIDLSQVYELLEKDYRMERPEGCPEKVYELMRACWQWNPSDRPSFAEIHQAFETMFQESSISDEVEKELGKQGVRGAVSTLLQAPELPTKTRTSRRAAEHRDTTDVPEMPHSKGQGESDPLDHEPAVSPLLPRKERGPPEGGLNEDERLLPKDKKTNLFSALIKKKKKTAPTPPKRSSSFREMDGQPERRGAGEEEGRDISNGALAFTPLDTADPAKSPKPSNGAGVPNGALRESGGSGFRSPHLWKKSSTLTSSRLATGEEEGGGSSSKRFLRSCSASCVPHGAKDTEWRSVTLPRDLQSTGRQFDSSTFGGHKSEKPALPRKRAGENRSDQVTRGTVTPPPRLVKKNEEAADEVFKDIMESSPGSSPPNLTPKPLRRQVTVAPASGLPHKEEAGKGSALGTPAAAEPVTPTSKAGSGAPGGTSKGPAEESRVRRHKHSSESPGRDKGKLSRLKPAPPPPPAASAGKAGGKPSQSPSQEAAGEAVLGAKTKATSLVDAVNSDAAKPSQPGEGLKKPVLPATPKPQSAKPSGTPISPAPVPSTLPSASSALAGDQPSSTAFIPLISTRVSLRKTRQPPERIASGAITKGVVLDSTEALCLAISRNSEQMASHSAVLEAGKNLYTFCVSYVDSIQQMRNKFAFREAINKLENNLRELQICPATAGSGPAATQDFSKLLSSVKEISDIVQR
Sequence of UniProt Q13188 (whole entry, looked up): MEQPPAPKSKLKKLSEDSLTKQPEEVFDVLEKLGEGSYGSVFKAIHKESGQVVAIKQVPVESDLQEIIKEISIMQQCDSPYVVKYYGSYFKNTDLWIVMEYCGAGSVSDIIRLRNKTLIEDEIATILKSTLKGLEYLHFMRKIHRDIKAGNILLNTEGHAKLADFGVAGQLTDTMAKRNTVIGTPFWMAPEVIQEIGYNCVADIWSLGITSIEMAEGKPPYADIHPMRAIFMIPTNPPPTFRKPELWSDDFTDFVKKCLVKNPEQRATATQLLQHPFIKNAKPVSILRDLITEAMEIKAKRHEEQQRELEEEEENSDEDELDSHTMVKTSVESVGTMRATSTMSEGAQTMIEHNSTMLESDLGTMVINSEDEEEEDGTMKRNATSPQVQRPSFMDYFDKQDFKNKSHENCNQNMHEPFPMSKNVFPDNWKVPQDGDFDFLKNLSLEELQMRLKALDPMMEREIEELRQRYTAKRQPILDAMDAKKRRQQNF
Sequence of UniProt Q13555 (whole entry, looked up): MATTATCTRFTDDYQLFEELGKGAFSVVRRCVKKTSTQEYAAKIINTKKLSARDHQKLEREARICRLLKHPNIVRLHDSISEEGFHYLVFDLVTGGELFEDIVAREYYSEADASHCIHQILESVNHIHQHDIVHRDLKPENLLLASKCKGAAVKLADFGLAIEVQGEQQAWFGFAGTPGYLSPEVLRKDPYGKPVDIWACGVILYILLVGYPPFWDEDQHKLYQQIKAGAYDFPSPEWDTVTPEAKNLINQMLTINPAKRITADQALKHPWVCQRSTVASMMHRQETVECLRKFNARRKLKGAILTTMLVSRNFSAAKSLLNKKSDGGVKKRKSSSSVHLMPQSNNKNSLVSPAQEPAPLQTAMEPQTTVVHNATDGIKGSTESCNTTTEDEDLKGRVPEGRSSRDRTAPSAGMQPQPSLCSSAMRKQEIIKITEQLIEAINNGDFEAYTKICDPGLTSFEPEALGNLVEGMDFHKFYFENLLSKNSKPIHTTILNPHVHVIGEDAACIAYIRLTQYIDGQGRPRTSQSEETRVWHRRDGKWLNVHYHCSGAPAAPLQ
Sequence of UniProt P06239 (whole entry, looked up): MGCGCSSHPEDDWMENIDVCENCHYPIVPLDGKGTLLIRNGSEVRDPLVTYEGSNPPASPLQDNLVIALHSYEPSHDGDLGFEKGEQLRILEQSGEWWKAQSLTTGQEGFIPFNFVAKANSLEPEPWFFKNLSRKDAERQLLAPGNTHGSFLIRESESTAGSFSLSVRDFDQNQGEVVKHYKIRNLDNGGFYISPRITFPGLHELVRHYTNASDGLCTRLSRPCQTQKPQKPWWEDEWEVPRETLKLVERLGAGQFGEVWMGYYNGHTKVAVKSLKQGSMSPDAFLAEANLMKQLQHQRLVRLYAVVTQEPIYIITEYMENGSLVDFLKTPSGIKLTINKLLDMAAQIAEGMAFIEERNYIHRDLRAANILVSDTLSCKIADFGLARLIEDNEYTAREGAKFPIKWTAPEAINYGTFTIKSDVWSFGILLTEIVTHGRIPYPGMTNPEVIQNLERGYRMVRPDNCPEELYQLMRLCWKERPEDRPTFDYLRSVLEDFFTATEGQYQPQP
Sequence of UniProt Q8TBX8 (whole entry, looked up): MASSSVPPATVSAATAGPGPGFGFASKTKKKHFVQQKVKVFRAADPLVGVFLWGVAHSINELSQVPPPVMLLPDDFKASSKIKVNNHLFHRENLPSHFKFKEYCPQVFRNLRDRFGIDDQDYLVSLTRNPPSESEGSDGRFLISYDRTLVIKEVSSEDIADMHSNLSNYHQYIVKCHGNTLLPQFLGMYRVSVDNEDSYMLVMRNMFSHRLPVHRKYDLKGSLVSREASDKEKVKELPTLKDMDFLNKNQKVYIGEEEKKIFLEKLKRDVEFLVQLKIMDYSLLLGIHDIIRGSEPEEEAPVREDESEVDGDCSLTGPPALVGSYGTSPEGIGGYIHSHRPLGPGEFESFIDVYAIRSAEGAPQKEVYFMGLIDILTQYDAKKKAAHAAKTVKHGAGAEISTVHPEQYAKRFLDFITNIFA

Set 1
SMILES: CN1CCN(c2cnc3c(C4CCN(C(=O)c5ccc(OC(F)(F)F)cc5N)CC4)ncnc3c2)CC1
Method: competition with immobilised ligand
Concentration: 1 µM
target	assay	remaining binding
Insulin receptor (INSR, Homo sapiens, UniProt P06213)	cell-free assay	88%
PIK3CA (Homo sapiens, UniProt P42336, M1043I)	cell-free assay	100%
Ribosomal protein S6 kinase alpha-6, N-terminal kinase domain (RPS6KA6, Homo sapiens, UniProt Q9UK32)	cell-free assay	100%
LCK (Homo sapiens, UniProt P06239)	binding	100%
PRKCI (Homo sapiens, UniProt P41743)	cell-free assay	77%
COQ8A (Homo sapiens, UniProt Q8NI60)	cell-free assay	100%
CHEK2 (Homo sapiens, UniProt O96017)	cell-free assay	100%
PRKCQ (Homo sapiens, UniProt Q04759)	cell-free assay	91%
DYRK2 (Homo sapiens, UniProt Q92630)	cell-free assay	100%
Tyrosine-protein kinase ABL1, non-phosphorylated (ABL1, Homo sapiens, UniProt P00519, F317I)	binding	100%
RIOK1 (Homo sapiens, UniProt Q9BRS2)	cell-free assay	100%
PRKCE (Homo sapiens, UniProt Q02156)	cell-free assay	100%
EPHA4 (Homo sapiens, UniProt P54764)	cell-free assay	100%
CAMK2G (Homo sapiens, UniProt Q13555)	cell-free assay	100%
PIP4K2C (Homo sapiens, UniProt Q8TBX8)	cell-free assay	100%

Set 2
Structure (SMILES): COc1cc(C(=O)N2CCC(N3CCN(C)CC3)CC2)ccc1Nc1ncc2c(n1)N(C)c1ccccc1C(=O)N2C
target	assay	system	conditions	inhibition [%]
ILK (human)	probe labelling, KiNativ ADP probe	human PBMC lysate	concentration not given, LYS1 labelled site	10.6
SLK (human)	probe labelling, KiNativ, measured: Lys1 site peptide	PBMC lysate (human)	1 µM, with: ATP acyl-phosphate probe	-1.6
NDR2 (mouse)	probe labelling, KiNativ, measured: DTGHIYAMkILR peptide, LYS1 site	brain tissue lysate (mouse)	0.1 µM, with: ATP acyl-phosphate probe	-1.2
WNK1/WNK2 (mouse)	probe labelling, inhibitor, KiNativ ActivX ATP probe	mouse brain lysate	1 µM, ATP loop peptide GSFkTVYK	5.7
mouse IKKε and TBK1	probe labelling, KiNativ ADP probe	mouse brain lysate	0.1 µM, LYS2 site DIkPGNIMR	2.2
PIK3CD human	KiNativ profiling	human PBMC	0.1 µM, ATP site, with: ATP acyl phosphate probe	10.3
CaMK2d (mouse)	probe labelling, KiNativ, measured: Lys1 site peptide	brain tissue lysate (mouse)	0.1 µM, with: ATP acyl-phosphate probe	-3.8
MAP2K1 and MAP2K2 (mouse)	probe labelling, KiNativ, measured: DVkPSNILVNSR peptide, LYS2 site	brain tissue lysate (mouse)	1 µM, with: ADP acyl-phosphate probe	5.6
QSK (mouse)	probe labelling, KiNativ, measured: LYS2 site peptide	brain tissue lysate (mouse)	0.1 µM, with: ADP acyl-phosphate probe	11.9
RSK2 kinase domain 2 (human)	probe labelling, KiNativ, measured: Lys1 site peptide	PBMC lysate (human)	1 µM, with: ADP acyl-phosphate probe	25.4
mouse CaMK2γ	probe labelling, KiNativ ADP probe	mouse brain lysate	1 µM, LYS1 site TSTQEYAAkIINTK	13

Set 3
Target: Eukaryotic initiation factor 4A-I (EIF4A1, Homo sapiens, UniProt P60842)
Sequence of UniProt P60842 (whole entry, looked up): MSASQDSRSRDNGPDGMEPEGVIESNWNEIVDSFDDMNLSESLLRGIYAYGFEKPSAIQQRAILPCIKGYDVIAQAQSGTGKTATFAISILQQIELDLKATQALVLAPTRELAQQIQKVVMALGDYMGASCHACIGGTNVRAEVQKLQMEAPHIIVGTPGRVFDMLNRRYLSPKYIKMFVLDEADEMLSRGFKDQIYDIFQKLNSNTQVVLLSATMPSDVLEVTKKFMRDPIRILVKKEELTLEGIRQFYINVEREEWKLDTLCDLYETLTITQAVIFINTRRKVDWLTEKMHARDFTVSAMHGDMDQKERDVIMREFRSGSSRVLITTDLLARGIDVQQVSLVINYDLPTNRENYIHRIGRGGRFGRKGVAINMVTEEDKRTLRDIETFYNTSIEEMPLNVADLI
Read-out: RNA clamping
Method: fluorescence polarization
Concentration: concentration not given
Notes: mean of two replicates
With: FAM-labelled poly r(AG)8 RNA
Structure (SMILES)	fluorescence polarization change
COC(=O)[C@H]1[C@@H](O)[C@@]2(O)c3c(OC)cc(OS(=O)(=O)c4ccc(C)cc4)cc3O[C@@]2(c2ccc(Br)cc2)[C@@H]1c1ccccc1	40.9 mP and 16.1 mP
COc1cc(OC)c2c(c1)O[C@@]1(c3ccc(Br)cc3)[C@H](c3ccccc3)C3=C(N[C@@H]4CCCN4C3=O)[C@@]21O	47.3 mP
CCCCN[C@@]12C(=O)[C@H](C(=O)OC)[C@@H](c3ccccc3)[C@]1(c1ccc(OC)cc1)Oc1cc(OC)cc(OC)c12	15.7 mP
COc1ccc([C@@]23Oc4cc(OC)cc(OC)c4[C@]2(O)[C@H](O)[C@H](C(=O)c2ccco2)[C@H]3c2ccc(O)cc2)cc1	25.7 mP
COc1cc(O)cc2c1[C@]1(O)[C@H](O)[C@H](C(=O)N(C)OC)[C@@H](c3ccccc3)[C@]1(c1ccc(Br)cc1)O2	49.3 mP and 85.7 mP
COc1ccc([C@]23Oc4cc(OC)cc(OC)c4[C@](O)([C@H](C(=O)OCc4ccccc4)[C@H]2c2ccccc2)[C@@H]3O)cc1	1.4 mP

Set 4
Compound: Cc1ccc(NC(=O)c2ccnc(C(F)(F)F)c2)cc1-c1cc(OCCO)nc(N2CCOCC2)c1
Concentration: 1 µM
target	assay	conditions	scale	remaining binding [%]
NUAK2 (Homo sapiens, UniProt Q9H093)	competitive binding	SNARK		100
TGFBR2 (Homo sapiens, UniProt P37173)	competitive binding panel		relative to: vehicle	100
NUAK1 (Homo sapiens, UniProt O60285)	competitive binding panel, measured: ARK5		relative to: vehicle	98
CDK14 (Homo sapiens, UniProt O94921)	competitive binding panel, measured: PFTK1		relative to: vehicle	100
DDR2 (Homo sapiens, UniProt Q16832)	competitive binding panel		relative to: vehicle	16
ROCK1 (Homo sapiens, UniProt Q13464)	competitive binding panel		relative to: vehicle	89
CDC42BPG (Homo sapiens, UniProt Q6DT37)	competitive binding panel, measured: DMPK2		relative to: vehicle	81
CHEK1 (Homo sapiens, UniProt O14757)	competitive binding panel		relative to: vehicle	100
STK3 (Homo sapiens, UniProt Q13188)	competitive binding panel, measured: MST2		relative to: vehicle	79

Excerpt of the above (set 4):
target	assay	conditions	scale	remaining binding [%]
NUAK2 (Homo sapiens, UniProt Q9H093)	competitive binding	SNARK		100
TGFBR2 (Homo sapiens, UniProt P37173)	competitive binding panel		relative to: vehicle	100
NUAK1 (Homo sapiens, UniProt O60285)	competitive binding panel, measured: ARK5		relative to: vehicle	98
CDK14 (Homo sapiens, UniProt O94921)	competitive binding panel, measured: PFTK1		relative to: vehicle	100
DDR2 (Homo sapiens, UniProt Q16832)	competitive binding panel		relative to: vehicle	16
ROCK1 (Homo sapiens, UniProt Q13464)	competitive binding panel		relative to: vehicle	89
